Measurements of several laboratories.
Every numbered part comes from another study and shows a few of its results, in no order. “And” joins repeats or separate records; there may be more than shown.
Chain of UniProt P35372 (whole entry, looked up): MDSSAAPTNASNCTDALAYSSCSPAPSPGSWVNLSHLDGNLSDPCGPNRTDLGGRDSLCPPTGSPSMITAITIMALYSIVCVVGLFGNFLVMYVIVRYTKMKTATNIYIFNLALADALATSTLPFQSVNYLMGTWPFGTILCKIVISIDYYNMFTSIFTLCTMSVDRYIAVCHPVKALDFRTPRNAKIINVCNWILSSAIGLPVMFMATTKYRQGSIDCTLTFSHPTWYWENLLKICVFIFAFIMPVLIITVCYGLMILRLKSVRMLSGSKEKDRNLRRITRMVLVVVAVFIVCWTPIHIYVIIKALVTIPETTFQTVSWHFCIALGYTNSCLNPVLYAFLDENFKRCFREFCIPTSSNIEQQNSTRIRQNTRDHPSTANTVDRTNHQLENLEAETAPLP
Chain of UniProt Q01959 (whole entry, looked up): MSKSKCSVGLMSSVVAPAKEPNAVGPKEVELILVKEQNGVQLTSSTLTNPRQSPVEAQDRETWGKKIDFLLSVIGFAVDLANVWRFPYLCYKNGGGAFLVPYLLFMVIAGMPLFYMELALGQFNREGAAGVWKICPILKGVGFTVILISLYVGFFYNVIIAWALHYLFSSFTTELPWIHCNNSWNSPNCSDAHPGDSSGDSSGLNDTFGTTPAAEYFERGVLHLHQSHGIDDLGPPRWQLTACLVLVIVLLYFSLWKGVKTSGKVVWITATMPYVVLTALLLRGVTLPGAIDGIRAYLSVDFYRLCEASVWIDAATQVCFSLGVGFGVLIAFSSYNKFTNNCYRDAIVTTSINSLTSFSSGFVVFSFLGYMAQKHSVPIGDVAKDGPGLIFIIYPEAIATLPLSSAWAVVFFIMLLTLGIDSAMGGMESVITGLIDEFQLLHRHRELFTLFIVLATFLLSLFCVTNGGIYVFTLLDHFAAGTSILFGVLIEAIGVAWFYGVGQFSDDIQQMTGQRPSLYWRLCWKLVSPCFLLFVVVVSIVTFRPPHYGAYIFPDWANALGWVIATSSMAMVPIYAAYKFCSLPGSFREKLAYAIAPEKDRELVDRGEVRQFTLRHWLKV
Chain of UniProt P23975 (whole entry, looked up): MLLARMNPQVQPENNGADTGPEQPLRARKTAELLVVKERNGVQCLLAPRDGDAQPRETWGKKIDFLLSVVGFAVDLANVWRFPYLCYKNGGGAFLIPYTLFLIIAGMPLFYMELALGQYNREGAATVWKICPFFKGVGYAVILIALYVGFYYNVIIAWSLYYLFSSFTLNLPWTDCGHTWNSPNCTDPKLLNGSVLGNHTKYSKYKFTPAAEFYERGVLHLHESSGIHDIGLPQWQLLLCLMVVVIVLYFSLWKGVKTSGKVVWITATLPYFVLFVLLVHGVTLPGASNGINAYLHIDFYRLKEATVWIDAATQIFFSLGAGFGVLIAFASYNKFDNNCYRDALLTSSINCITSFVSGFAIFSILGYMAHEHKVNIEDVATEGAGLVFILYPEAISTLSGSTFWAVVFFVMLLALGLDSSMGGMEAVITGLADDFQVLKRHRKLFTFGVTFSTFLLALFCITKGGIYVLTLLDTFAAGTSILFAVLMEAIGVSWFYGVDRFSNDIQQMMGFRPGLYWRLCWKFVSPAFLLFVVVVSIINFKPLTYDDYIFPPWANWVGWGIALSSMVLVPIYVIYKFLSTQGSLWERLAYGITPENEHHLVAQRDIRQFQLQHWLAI
Chain of UniProt P41145 (whole entry, looked up): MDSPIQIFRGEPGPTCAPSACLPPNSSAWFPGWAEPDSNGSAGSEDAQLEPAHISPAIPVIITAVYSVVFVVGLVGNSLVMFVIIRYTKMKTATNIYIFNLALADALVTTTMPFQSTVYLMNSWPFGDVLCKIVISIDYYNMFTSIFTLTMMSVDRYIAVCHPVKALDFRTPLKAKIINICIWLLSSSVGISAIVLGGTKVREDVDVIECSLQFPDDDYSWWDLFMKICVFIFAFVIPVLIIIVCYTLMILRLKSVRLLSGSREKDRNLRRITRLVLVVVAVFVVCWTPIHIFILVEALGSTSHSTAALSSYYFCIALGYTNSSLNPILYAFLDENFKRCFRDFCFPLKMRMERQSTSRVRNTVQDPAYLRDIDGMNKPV

Block 1
Target: DNA polymerase theta, ATPase domain (POLQ, Homo sapiens, UniProt O75417)
Chain of UniProt O75417 (whole entry, unmodified, looked up): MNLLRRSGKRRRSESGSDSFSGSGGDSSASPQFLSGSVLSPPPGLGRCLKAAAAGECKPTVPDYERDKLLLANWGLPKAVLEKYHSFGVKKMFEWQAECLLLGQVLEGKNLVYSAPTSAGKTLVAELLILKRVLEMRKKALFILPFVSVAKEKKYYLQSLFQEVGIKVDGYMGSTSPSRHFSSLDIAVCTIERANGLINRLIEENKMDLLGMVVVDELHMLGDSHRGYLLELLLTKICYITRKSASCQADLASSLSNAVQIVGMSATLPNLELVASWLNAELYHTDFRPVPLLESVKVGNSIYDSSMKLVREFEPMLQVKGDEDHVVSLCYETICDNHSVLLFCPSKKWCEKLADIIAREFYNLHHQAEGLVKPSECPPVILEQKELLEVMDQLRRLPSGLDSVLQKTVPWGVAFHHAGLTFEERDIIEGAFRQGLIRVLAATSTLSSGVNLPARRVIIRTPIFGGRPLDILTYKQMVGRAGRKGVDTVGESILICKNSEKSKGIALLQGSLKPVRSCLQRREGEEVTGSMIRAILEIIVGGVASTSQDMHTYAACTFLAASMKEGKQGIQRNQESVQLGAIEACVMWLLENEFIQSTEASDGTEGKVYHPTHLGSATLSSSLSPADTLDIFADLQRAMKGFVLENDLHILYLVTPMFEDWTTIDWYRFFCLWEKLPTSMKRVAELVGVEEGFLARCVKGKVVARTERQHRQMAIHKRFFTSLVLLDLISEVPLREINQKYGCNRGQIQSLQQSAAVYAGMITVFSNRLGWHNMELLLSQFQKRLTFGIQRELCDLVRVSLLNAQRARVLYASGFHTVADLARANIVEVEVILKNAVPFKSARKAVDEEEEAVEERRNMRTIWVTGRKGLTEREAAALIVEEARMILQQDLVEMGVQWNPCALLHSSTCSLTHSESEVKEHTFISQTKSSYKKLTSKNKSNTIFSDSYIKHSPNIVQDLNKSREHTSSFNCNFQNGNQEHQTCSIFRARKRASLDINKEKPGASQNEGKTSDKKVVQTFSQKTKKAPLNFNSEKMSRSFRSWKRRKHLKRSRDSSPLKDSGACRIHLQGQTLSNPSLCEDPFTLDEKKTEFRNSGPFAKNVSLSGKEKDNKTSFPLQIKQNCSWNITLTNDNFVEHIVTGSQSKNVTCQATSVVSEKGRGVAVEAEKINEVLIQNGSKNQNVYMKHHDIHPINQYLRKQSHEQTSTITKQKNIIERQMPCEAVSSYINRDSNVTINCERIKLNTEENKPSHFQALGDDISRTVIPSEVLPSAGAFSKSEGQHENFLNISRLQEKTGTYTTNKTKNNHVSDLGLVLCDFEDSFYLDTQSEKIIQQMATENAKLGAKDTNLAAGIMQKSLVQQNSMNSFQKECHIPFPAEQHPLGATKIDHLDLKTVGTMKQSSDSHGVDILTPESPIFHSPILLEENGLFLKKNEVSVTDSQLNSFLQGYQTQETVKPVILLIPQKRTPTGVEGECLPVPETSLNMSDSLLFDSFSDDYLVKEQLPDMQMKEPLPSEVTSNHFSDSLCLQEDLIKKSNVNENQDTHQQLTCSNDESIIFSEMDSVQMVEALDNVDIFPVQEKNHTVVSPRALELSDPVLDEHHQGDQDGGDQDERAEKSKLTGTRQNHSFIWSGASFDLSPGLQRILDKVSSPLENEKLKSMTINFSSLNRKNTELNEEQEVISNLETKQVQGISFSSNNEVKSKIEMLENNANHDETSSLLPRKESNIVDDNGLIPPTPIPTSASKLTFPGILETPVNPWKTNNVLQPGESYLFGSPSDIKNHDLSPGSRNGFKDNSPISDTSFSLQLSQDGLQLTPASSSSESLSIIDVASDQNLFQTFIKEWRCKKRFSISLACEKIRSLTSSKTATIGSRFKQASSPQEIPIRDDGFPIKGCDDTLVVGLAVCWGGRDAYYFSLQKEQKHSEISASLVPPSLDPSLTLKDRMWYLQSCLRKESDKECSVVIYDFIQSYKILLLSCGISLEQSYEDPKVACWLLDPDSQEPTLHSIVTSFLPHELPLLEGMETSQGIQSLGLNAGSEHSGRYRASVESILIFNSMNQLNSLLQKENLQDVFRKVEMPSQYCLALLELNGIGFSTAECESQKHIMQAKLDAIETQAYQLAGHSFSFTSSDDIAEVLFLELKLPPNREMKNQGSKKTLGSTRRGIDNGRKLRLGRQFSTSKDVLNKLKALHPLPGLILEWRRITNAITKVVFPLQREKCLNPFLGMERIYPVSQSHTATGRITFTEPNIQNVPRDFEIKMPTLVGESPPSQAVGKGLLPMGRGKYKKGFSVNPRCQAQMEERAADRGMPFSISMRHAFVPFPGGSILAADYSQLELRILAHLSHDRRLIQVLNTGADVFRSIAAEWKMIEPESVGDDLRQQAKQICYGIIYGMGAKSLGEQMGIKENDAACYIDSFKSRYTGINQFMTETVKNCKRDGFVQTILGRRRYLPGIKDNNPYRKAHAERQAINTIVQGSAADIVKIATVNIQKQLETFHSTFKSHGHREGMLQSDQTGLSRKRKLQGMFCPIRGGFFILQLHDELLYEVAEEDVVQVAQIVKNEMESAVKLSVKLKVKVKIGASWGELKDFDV
Read-out: enzyme activity
Mode: inhibitor
Tested at: 77 µM
Baseline: untreated
Endpoint: remaining activity
N[C@]1(C(=O)O)CC[C@H](C(=O)O)C1: 111%
O=C1C=CC(=O)C=C1: 99.5%
O=[N+]([O-])c1ncc[nH]1: 95.9%
C[C@]12CCC(=O)C=C1CC[C@@H]1[C@@H]2C(=O)C[C@]2(C)C(=O)CC[C@@H]12: 109%
CCCCCCCCCCCCCC(=O)O[C@@H]1[C@@H](C)[C@@]2(O)[C@@H](C=C(CO)C[C@]3(O)C(=O)C(C)=C[C@@H]23)[C@@H]2C(C)(C)[C@]12OC(C)=O: 90.8%
CC(=O)O[C@@]12CO[C@@H]1C[C@H](O)[C@@]1(C)C(=O)[C@H](O)C3=C(C)[C@@H](O)C[C@@](O)([C@@H](OC(=O)c4ccccc4)[C@H]21)C3(C)C: 97%
CCN1C[C@]2(COC)CC[C@H](O)[C@]34C1C(C[C@H]23)[C@@]1(O)C[C@H](OC)[C@H]2C[C@@H]4[C@@H]1[C@H]2OC(C)=O: 100%
C[C@]12CC[C@H]3[C@@H](CCC4=CC(=O)CC[C@@H]43)[C@@H]1CC[C@@H]2O: 101%
C[C@H]1CC[C@]2(NC1)O[C@H]1C[C@H]3[C@@H]4CC[C@H]5C[C@@H](O[C@@H]6O[C@H](CO)[C@H](O[C@@H]7O[C@H](CO)[C@@H](O)[C@H](O[C@@H]8OC[C@@H](O)[C@H](O)[C@H]8O)[C@H]7O[C@@H]7O[C@H](CO)[C@@H](O)[C@H](O)[C@H]7O)[C@H](O)[C@H]6O)CC[C@]5(C)[C@H]4CC[C@]3(C)[C@H]1[C@@H]2C: 98%
CC[C@@H](CO)NC(=O)[C@@H]1C=C2c3cccc4c3c(cn4C)C[C@H]2N(C)C1: 99.7%

Block 2
Target: Calcium/calmodulin-dependent protein kinase type II subunit alpha (CAMK2A, Homo sapiens, UniProt Q9UQM7)
Chain of UniProt Q9UQM7 (whole entry, looked up): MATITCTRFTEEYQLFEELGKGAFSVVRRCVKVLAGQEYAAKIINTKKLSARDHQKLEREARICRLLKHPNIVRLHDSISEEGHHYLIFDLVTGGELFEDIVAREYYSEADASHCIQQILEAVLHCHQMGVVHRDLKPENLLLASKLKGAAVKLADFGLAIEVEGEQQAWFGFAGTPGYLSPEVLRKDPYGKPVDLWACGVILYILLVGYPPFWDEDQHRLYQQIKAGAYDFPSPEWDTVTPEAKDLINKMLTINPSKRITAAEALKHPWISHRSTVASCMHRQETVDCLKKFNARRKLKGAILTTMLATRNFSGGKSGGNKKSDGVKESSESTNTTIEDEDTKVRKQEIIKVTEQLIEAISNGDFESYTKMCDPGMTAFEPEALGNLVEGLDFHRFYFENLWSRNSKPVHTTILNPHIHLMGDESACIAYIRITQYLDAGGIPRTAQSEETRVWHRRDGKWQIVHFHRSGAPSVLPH
Read-out: enzyme activity
Mode: inhibitor
Tested at: 10 µM
Endpoint: inhibition
c1ccc2c(c1)Sc1ccccc1N2CC1CN2CCC1CC2 (stereo not drawn): 5%
CC(C)C1=CC(=O)[C@@](C)([C@H]2[C@H](O)C[C@@]3(C)[C@@H]4CC=C5[C@@H](CC[C@@H](O[C@@H]6OC[C@@H](O)[C@H](O)[C@H]6O[C@@H]6O[C@@H](C)[C@H](O)[C@@H](O)[C@H]6O)C5(C)C)[C@]4(C)C(=O)C[C@]23C)O1: -4%
O=C(Nc1ccccc1)Nc1ccnc(Cl)c1: 4%
O=C(C[C@H]1NCCC[C@@H]1O)Cn1cnc2ccccc2c1=O: -37%
CO[C@H]1[C@@H](O)[C@H](O[C@@H]2[C@@H](C)O[C@@H](O[C@H]3CC[C@@]4(C)[C@@H](CC[C@@]56O[C@@]57CC[C@@H](C(C)=O)[C@@]7(C)[C@H](OC(C)=O)[C@@H](OC(=O)c5ccccc5)[C@H]46)C3)C[C@H]2OC)O[C@H](C)[C@H]1O: -66%
C=C(C)[C@@H]1[C@H]2OC(=O)[C@@H]1[C@]1(O)C[C@H]3O[C@]34C(=O)O[C@H]2[C@]14C: 69%
O=C1c2ccccc2C(=O)c2ccccc21: -14%
Clc1ccc(C(OCCN2CCCCC2)c2ccccc2)cc1 (stereo not drawn): -6%
N#CCCN: -42%
CC(C)OC(=O)[C@H](C)N[P@](=O)(CO[C@H](C)Cn1cnc2c(N)ncnc21)Oc1ccccc1: 0.06% and -0.08% and 0%
CC(C)c1cccc(C(C)C)c1O: -9%

Block 3
SMILES: O=C(O)[C@@H]1[C@@H](Cn2nnc3ccccc3c2=O)CC[C@H]1C(=O)c1ccc(OCCC2CCOCC2)cc1
Read-out: binding
Technique: radioligand binding
Tested at: 10 µM
Endpoint: inhibition
Muscarinic acetylcholine receptor M3 (CHRM3, Homo sapiens, UniProt P20309): 5.09%
Sodium-dependent serotonin transporter (SLC6A4, Homo sapiens, UniProt P31645): 10.2%
Sodium-dependent dopamine transporter (SLC6A3, Homo sapiens, UniProt Q01959): -23.5%
D(1B) dopamine receptor (DRD5, Homo sapiens, UniProt P21918): 19.6%
Kappa-type opioid receptor (OPRK1, Homo sapiens, UniProt P41145): 8.5%
Mu-type opioid receptor (OPRM1, Homo sapiens, UniProt P35372): -10.1%
Sodium-dependent noradrenaline transporter (SLC6A2, Homo sapiens, UniProt P23975): -10.1%

Further values, each from its own experiment
Cell line: mouse MPNST tumor cells
Technique: high-content nuclear imaging
Refers to: cell number
Tested at: 10 µM
Time: 12 h
Setting: mean of 2 replicates
Baseline: plate mean
Reading: higher = more cells
CC(C)(O)[C@H]1O[C@H]2CC[C@@]3(C)[C@@](O)(CC[C@H]4Cc5c([nH]c6ccccc56)[C@@]43C)C2=CC1=O  nuclei count: 3.79 z-score
Oc1ccc2c3c1O[C@H]1c4[nH]c5c(c4C[C@@]4(O)[C@@H](C2)N(CC2CC2)CC[C@]314)C[C@@]1(O)[C@H]2Cc3ccc(O)c4c3[C@@]1(CCN2CC1CC1)[C@H]5O4  nuclei count: 0.915 z-score

A few entries again (block 2):
N#CCCN: -42%
C=C(C)[C@@H]1[C@H]2OC(=O)[C@@H]1[C@]1(O)C[C@H]3O[C@]34C(=O)O[C@H]2[C@]14C: 69%
c1ccc2c(c1)Sc1ccccc1N2CC1CN2CCC1CC2 (stereo not drawn): 5%
CO[C@H]1[C@@H](O)[C@H](O[C@@H]2[C@@H](C)O[C@@H](O[C@H]3CC[C@@]4(C)[C@@H](CC[C@@]56O[C@@]57CC[C@@H](C(C)=O)[C@@]7(C)[C@H](OC(C)=O)[C@@H](OC(=O)c5ccccc5)[C@H]46)C3)C[C@H]2OC)O[C@H](C)[C@H]1O: -66%
O=C(C[C@H]1NCCC[C@@H]1O)Cn1cnc2ccccc2c1=O: -37%
